Experimental data of several laboratories.
Protocols differ between the studies behind these lines.
Target: Cytochrome P450 2C9 (CYP2C9, Homo sapiens, UniProt P11712)

SMILES | assay | system | setting | measurement | value
CN[C@@H]1[C@H](O)[C@H](NC)[C@H]2O[C@]3(O)[C@H](O[C@@H]2[C@H]1O)O[C@H](C)C[C@H]3NC(=O)Cc1cc(Cl)ccn1 |  |  | 10 µM | inhibition | 0%
C[C@H](NCc1ccc(-c2ccc(C(F)(F)F)cc2)cc1)C(N)=O | P450-Glo luminescence | potassium phosphate buffer | 10 µM, pH 7.4, isoform 2C9 | inhibition | 99.1%
CCN(CC)CCOc1ccc(-c2nnn(Cc3ccc(OC)cc3)c2N)cc1 | CYP phenotyping |  | concentration not given | inhibition | -1.8%
N#Cc1cccc2c1C1(CCN(C(=O)c3cnc4[nH]ncc4c3)CC1)C(=O)N2CC(=O)NCC(F)(F)F | enzyme activity, inhibitor |  |  | IC50 | > 8 µM
C[C@@H](c1ccc2nccn2c1)n1nnc2ncc(-c3cn[nH]c3)nc21 | enzyme activity, inhibitor | human, liver microsomes |  | IC50 | 13 µM
O=C(CN1C(=O)C2(CCN(C(=O)c3ccc4[nH]ncc4c3)CC2)c2c(Br)cccc21)NCC(F)(F)F | enzyme activity, inhibitor |  |  | IC50 | 3.9 µM
CC(=O)c1cccc(-c2nc(Nc3ccccc3)nc(N3CCOCC3)n2)c1 |  |  | 10 µM | inhibition | 98%
O=C(CN1C(=O)C2(CCN(C(=O)c3cnc4[nH]ncc4c3)CC2)c2c(F)cccc21)NCC(F)(F)F | enzyme activity, inhibitor |  |  | IC50 | 20 µM
Cc1cc(-c2ccc3ccccc3c2)nnc1NCCN1CCN(C)CC1 | substrate | recombinant enzyme | 100 nM, 0.5 h | remaining compound | 89%

For quick reference, copied from above:
SMILES | assay | system | setting | measurement | value
C[C@H](NCc1ccc(-c2ccc(C(F)(F)F)cc2)cc1)C(N)=O | P450-Glo luminescence | potassium phosphate buffer | 10 µM, pH 7.4, isoform 2C9 | inhibition | 99.1%
